Results of several laboratories.
Lines come from different studies, so protocols differ. ± marks the error that the study gave. ≈ marks a conversion by molar mass, not a printed value.
UniProt O43613, sequence (whole entry, looked up): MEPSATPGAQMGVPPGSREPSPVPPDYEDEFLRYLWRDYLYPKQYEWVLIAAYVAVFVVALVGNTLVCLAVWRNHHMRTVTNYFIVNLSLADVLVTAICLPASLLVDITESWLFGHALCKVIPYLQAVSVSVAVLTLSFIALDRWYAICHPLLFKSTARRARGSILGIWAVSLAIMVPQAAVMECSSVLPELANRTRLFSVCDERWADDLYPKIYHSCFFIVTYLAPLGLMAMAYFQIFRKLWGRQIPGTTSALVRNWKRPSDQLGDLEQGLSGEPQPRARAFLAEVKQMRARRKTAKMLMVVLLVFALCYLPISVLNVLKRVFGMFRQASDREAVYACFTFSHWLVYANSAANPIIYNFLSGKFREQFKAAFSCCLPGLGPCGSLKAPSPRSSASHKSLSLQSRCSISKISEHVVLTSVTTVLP

Cc1c(C(=O)NN2CCCCC2)nn(-c2ccc(Cl)cc2Cl)c1-c1ccc(Cl)cc1
plasma concentration (LC-MS/MS; cynomolgus monkey 5, plasma; intravenous infusion, 0.1 mg/kg, 90 min, total concentration mid-point of PET): 92 nM

[2H]C([2H])([2H])Oc1cc2c(cc1OC([2H])([2H])[2H])C1CC(=O)C(CC(C)C)CN1CC2 (centres unmarked)
dose-normalized Cmax (item: deuterated β-HTBZ; healthy human volunteers, plasma; oral, 18 mg single dose, standard meal): 0.9 ng/mL

CN1CCN(c2ccc3nc(-c4c(N)c5c(F)cccc5[nH]c4=O)[nH]c3c2)CC1
t1/2 (patients, plasma; oral, 300 mg daily 5 days on 2 off, day 19, maximum, together with: gemcitabine and capecitabine): 19.8 h

CCC(CC)COC(=O)[C@H](C)N[P@](=O)(OC[C@H]1O[C@@](C#N)(c2ccc3c(N)ncnn23)[C@H](O)[C@@H]1O)Oc1ccccc1
equilibrium solubility (20% w/w aqueous SBECD; 24 h, pH 1.9, 25 °C): 9730 µg/mL

C/C=C/C[C@@H](C)C(=O)[C@H]1C(=O)N[C@@H](C(C)C)C(=O)N(C)CC(=O)N(C)[C@@H](CC(C)C)C(=O)N[C@@H](C(C)C)C(=O)N(C)[C@@H](CC(C)C)C(=O)N[C@@H](C)C(=O)N[C@H](C)C(=O)N(C)[C@@H](CC(C)C)C(=O)N(C)[C@@H](CC(C)C)C(=O)N(C)[C@@H](C(C)C)C(=O)N1C
free plasma concentration (Sprague Dawley rat, plasma; intravenous infusion, 8.0 mg/h/kg, 4 h, 4.5 h constant infusion): 2590 ng/mL

O=C(/C=C/c1ccc(O)c2c1[C@H](C(=O)O)[C@@H](c1ccc(O)c(O)c1)O2)O[C@H](Cc1ccc(O)c(O)c1)C(=O)O
MRT(0-inf) (UPLC-MS/MS; Wistar rat, microcirculation dysfunction model, plasma; oral, 100 mg/kg Salvia miltiorrhiza stem-leaf extract FS): 8.87 ± 3.38 h

O=C1CCc2ncccc2C(=O)Nc2ccccc21
kinetic solubility (nephelometry; aqueous buffer; 30 min, pH 6.5): > 100 µg/mL

CCc1oc2cc(OC)ccc2c1C(=O)c1cc(Br)c(O)c(Br)c1
intrinsic clearance (Sprague-Dawley rat, liver microsomes; 1.0 µM, pH 7.4, 37 °C, together with: NADPH 1.0 mM): 118 ± 8.7 µL/min/mg

CS(=O)(=O)Nc1ccc(C(=O)O[C@@H](Cc2c(Cl)c[n+]([O-])cc2Cl)c2ccc(OC(F)F)c(OCC3CC3)c2)cc1OCC1CC1
tmax (human, plasma; inhaled, 400 µg single dose, single-dose dry powder inhaler): 2 h

CCCC[C@H](NC(C)=O)C(=O)N[C@H]1CCC(=O)NC[C@@H](C(=O)N[C@@H](Cc2c[nH]c3ccccc23)C(N)=O)NC(=O)[C@H](CCCNC(=N)N)NC(=O)[C@@H](Cc2ccccc2)NC(=O)[C@H](Cc2c[nH]cn2)NC1=O
Vd/F (male Sprague-Dawley rat, plasma; subcutaneous, 5 mg/kg, multiple doses, once daily): 12.3 L/kg

N[C@@H]1CCN(c2nccc(-c3cnn4ncccc34)n2)C1
CLint (human liver microsomes): 40 µL/min/mg

CCCOc1ccc([C@H]2CNC(=O)N2c2ccc3[nH]cnc3c2)cc1
AUC(0-12h) (human volunteers fasted, plasma; oral tablet, 1800 mg single dose, day 1, geometric mean): 30500 ng·h/mL

CCCC[C@@H]1NC(=O)[C@@H](NC(=O)[C@H](CCC(=O)O)NC(=O)CNC(=O)CN2CCN(CC(=O)O)CCN(CC(=O)O)CCN(CC(=O)O)CC2)CCCCNC(=O)C[C@@H](C(N)=O)NC(=O)[C@H](C(C)C)NC(=O)[C@@H]2CCCN2C(=O)[C@H](CCCNC(=N)N)NC(=O)CNC(=O)[C@H](Cc2c[nH]c3ccccc23)NC(=O)[C@H](CCCNC(=N)N)NC(=O)[C@@H](Cc2ccccc2)NC(=O)[C@H](Cc2c[nH]cn2)NC(=O)[C@H](CCC(=O)O)NC1=O [indium-111 labelled]
tissue uptake (C57 mice, B16/F10 lung metastatic melanoma, stomach; intravenous, 0.037 MBq, 2 h): 0.13 ± 0.05 %ID/g

Cc1c(C(=O)NN2CCCCC2)nc(-c2ccc(Cl)cc2Cl)n1-c1ccc(OS(=O)(=O)CCC(F)(F)F)cc1
plasma concentration (LC-MS/MS; cynomolgus monkey 1, plasma; intravenous infusion, 0.03 mg/kg, 90 min, total concentration mid-point of PET): 0 nM

O=C1N=C(N2CCOCC2)CN1c1ccc(Cl)cc1
AUC(0-inf) (beagle dog, both sexes, plasma; oral, 30 mg/kg, tablets, fasted, day 0): 116000 ng·h/mL

CC1(C)C2CC[C@]1(C)C(=O)/C2=C/c1ccsc1
maximum hemolysis (human red blood cells; 10 to 300 µg/mL, 30 min): < 14%

COCCNC(=O)CN(CCN(CCN(CC(=O)[O-])CC(=O)NCCOC)CC(=O)[O-])CC(=O)[O-].[Gd+3]
T1 relaxivity r1 (MRI at 9.4 T; saline; 37 °C, per Gd): 4.5 ± 0.1 mM⁻¹ s⁻¹

CCN(CC)C(=O)[S+](C)[O-] (centres unmarked)
oral clearance (CL/F) (human; oral): 0.595 L/h

CNC(=O)c1cccc2cc(Oc3ccnc4cc(OCC5(N)CC5)c(OC)cc34)ccc12
Vss/F (human; oral, 10 mg, cycle 1 day 15, multiple dose, continuous arm, geometric mean): 125 L

COc1cc(Nc2ncc3c(n2)-c2ccc(Cl)cc2C(c2c(F)cccc2OC)=NC3)ccc1C(=O)O
trough concentration (children, UGT1A1 intermediate or poor metabolizers, grade ≥2 toxicity, plasma; oral, 80 mg/m2, day 4): 1870 ± 820 nM

CC[C@H](C)[C@H](NC(=O)[C@H](Cc1ccccc1)NC(=O)[C@H](CCC(=O)O)NC(=O)[C@H](CCCCNC(=O)COCCOCCNC(=O)COCCOCCNC(=O)CC[C@H](NC(=O)CCCCCCCCCCCCCCCCC(=O)O)C(=O)O)NC(=O)[C@H](C)NC(=O)[C@H](C)NC(=O)[C@H](CCC(N)=O)NC(=O)CNC(=O)[C@H](CCC(=O)O)NC(=O)[C@H](CC(C)C)NC(=O)[C@H](Cc1ccc(O)cc1)NC(=O)[C@H](CO)NC(=O)[C@H](CO)NC(=O)[C@@H](NC(=O)[C@H](CC(=O)O)NC(=O)[C@H](CO)NC(=O)[C@@H](NC(=O)[C@H](Cc1ccccc1)NC(=O)[C@@H](NC(=O)CNC(=O)[C@H](CCC(=O)O)NC(=O)C(C)(C)NC(=O)[C@@H](N)Cc1cnc[nH]1)[C@@H](C)O)[C@@H](C)O)C(C)C)C(=O)N[C@@H](C)C(=O)N[C@@H](Cc1c[nH]c2ccccc12)C(=O)N[C@@H](CC(C)C)C(=O)N[C@H](C(=O)N[C@@H](CCCNC(=N)N)C(=O)NCC(=O)N[C@@H](CCCNC(=N)N)C(=O)NCC(=O)O)C(C)C
symptomatic hypoglycemia incidence (healthy human subjects; dose not given): 10.8%

O=C(O)Cc1ccccc1Nc1c(Cl)cccc1Cl
t1/2 (rat, plasma; oral, 10 mg/kg, together with: sesamin 10 mg/kg): 11.8 ± 6.8 h

CN[C@@H]1[C@H](O)[C@H](NC)[C@H]2O[C@]3(O)[C@H](O[C@@H]2[C@H]1O)O[C@H](C)C[C@H]3NC(=O)Cc1ccccn1
parent remaining (glutathione conjugation; human liver S9; 100 µM, 2 h, pH 7.4, together with: glutathione 0.2 mM): 96.7%

COc1cc2c3c(n(CCCN4CCOCC4)c(=O)c2cc1OC)-c1cc2c(cc1C3=O)OCO2
AUC(0-24 h) (patients, plasma; intravenous infusion, 20 mg/m^2 daily over 1 h, cycle 1 day 4): 5090 ng·h/mL

CS(=O)(=O)n1cc2c(n1)CN([C@H]1CO[C@H](c3cc(F)ccc3F)[C@@H](N)C1)C2
concentration at 168 h (healthy male human, plasma; oral, 25 mg single, fasted, geometric mean): 20.6 nM

C[C@](N)(Cc1ccc(O)c(O)c1)C(=O)O
solubility (supercritical carbon dioxide; 5 h, 333 K, 27 MPa, density 806.7 kg/m3): 354 µg/mL (≈ 1680 µM)

CC[C@H](C)[C@H](NC(=O)[C@H](Cc1ccccc1)NC(=O)[C@H](CCC(=O)O)NC(=O)[C@H](CCCCNC(=O)COCCOCCNC(=O)COCCOCCNC(=O)CC[C@H](NC(=O)CCCCCCCCCCCCCCCCC(=O)O)C(=O)O)NC(=O)[C@H](C)NC(=O)[C@H](C)NC(=O)[C@H](CCC(N)=O)NC(=O)CNC(=O)[C@H](CCC(=O)O)NC(=O)[C@H](CC(C)C)NC(=O)[C@H](Cc1ccc(O)cc1)NC(=O)[C@H](CO)NC(=O)[C@H](CO)NC(=O)[C@@H](NC(=O)[C@H](CC(=O)O)NC(=O)[C@H](CO)NC(=O)[C@@H](NC(=O)[C@H](Cc1ccccc1)NC(=O)[C@@H](NC(=O)CNC(=O)[C@H](CCC(=O)O)NC(=O)C(C)(C)NC(=O)[C@@H](N)Cc1cnc[nH]1)[C@@H](C)O)[C@@H](C)O)C(C)C)C(=O)N[C@@H](C)C(=O)N[C@@H](Cc1c[nH]c2ccccc12)C(=O)N[C@@H](CC(C)C)C(=O)N[C@H](C(=O)N[C@@H](CCCNC(=N)N)C(=O)NCC(=O)N[C@@H](CCCNC(=N)N)C(=O)NCC(=O)O)C(C)C
tmax at steady state (Japanese subjects; subcutaneous once weekly, 0.5 mg, median): 30 h

COc1cc2c(cc1OC)C(Cc1ccc(OS(=O)(=O)c3ccc(C)cc3)c(OC)c1)N(CC(=O)NCc1ccccc1)CC2 (centres unmarked)
Kb (HCRTR1 (Homo sapiens, UniProt O43613); calcium signal, antagonist, fluorescence): > 10 µM

CCOc1ccc(Cc2cc([C@]34OC[C@](CO)(O3)[C@@H](O)[C@H](O)[C@H]4O)ccc2Cl)cc1
dose excreted unchanged (human, type 2 diabetes, moderate renal impairment, urine; oral, 15 mg, 0 to 96 h): 0.646%

Oc1ccc(C(c2ccc(O)cc2)(C(F)(F)F)C(F)(F)F)cc1
elimination (k10) half-life (item: free compound; Hsd:Sprague Dawley rat female, plasma; oral gavage, 110 mg/kg single dose): 1.68 h

O=C1Nc2ccccc2CCCc2ccccc21
kinetic solubility (nephelometry; aqueous buffer; 30 min, pH 6.5): > 25 µg/mL

Cn1c(-c2ccc(C(N)=O)cc2F)nnc1C(C)(C)Oc1c(F)cc(Cl)cc1F
half-life median (young non-Japanese adults, plasma; oral, 50 mg single dose, day 1, high-dose multiple-dose study): 11.7 h

CN1CC[C@@H](NC(=O)Nc2ccc(C#N)cc2)C[C@@H]1c1nc2ccccc2[nH]1
tolerability (human, normal and impaired hepatic function; oral, 100 mg single dose): not toxic

CN(C)C(=O)c1cc2cnc(Nc3ccc(N4CCNCC4)cn3)nc2n1C1CCCC1
unbound concentration (human, tumour core; oral, 600 mg daily for 14 days): 1.36 nmol/g

C[C@@H](c1ncncc1F)[C@](O)(Cn1cncn1)c1ccc(F)cc1F
trough concentration (patients, hematological disorders, no proton pump inhibitors, plasma; 200 mg, 12 h, steady state, median): 1710 ng/mL

Clc1ccccc1C(c1ccccc1)(c1ccccc1)n1ccnc1
unbound fraction (equilibrium dialysis; CYP2C8 preparation, phosphate buffer; 1 µM, 12 h, pH 7.4): 0.048 ± 0.002

N#C[C@@H]1CCCN1C(=O)CNC12CC3CC(CC(O)(C3)C1)C2
AUC (male ICR mouse, kidney; oral, 3 mg/kg, 24 h): 19800 ng·h/mL

CCN1C(=O)CNc2ncc(-c3ccc(-c4nc[nH]n4)nc3C)nc21
AUC(0-12h) (human, plasma; oral, 10 mg twice daily, first dose): 311 ng·h/mL

COc1cccc(N2CCN(C3=Nc4c(F)cccc4[C@H](CC(=O)O)N3c3cc(C(F)(F)F)ccc3OC)CC2)c1
mean residence time (healthy women, plasma; intravenous infusion, 240 mg, day 1, single dose, 30-min infusion): 7.31 ± 3.31 h

C[C@]12CC[C@@H]3c4ccc(O)cc4CC[C@H]3[C@@H]1C[C@@H](O)[C@@H]2O
mean serum concentration (GC-MS; breast cancer women on NSAI, serum; vaginal, 0.03 mg daily, 6 h, day 28): 0.00733 ng/mL

CC(C)C[C@H](NC(=O)[C@H](CCc1ccccc1)NC(=O)CN1CCOCC1)C(=O)N[C@@H](Cc1ccccc1)C(=O)N[C@@H](CC(C)C)C(=O)[C@@]1(C)CO1
Vz (LC-MS; human, plasma; intravenous push, 15 mg/m^2): 192 L
